Measured values pooled from the literature.
A part holds a random share of what one study measured. “And” joins repeats or separate records; there may be more than shown. Changes are numbered by the printed parent chain.

Set 1
Target: CCNB3, cyclin fold, Cln2 fusion (human)
Method: yeast growth competition, sequencing
Matrix: yeast
Notes: weak parent motif
Relative to: not given
Reading: higher = stronger binding
Parent: viral docking peptide; KKVKRRLFETREL; partner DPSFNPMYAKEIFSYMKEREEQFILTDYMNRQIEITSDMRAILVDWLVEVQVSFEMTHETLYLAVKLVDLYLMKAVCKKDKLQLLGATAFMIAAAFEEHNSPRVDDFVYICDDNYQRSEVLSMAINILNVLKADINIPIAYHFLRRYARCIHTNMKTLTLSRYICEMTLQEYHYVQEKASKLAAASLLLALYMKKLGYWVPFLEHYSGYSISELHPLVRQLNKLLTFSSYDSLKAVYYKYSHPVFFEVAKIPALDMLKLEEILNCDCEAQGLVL
Substitution | normalised enrichment score
T10A | 0.774
K4A | 0.0778
E12A | 0.362
K2A | 0.996
R5K | 0.377

Set 2
Target: UDP-N-acetylglucosamine--peptide N-acetylglucosaminyltransferase 110 kDa subunit (OGT, Homo sapiens, UniProt O15294)
Read-out: phage display binding
Method: phage display panning NGS
Form: peptide
Relative to: OGT-panned over input library
Target sequence (O15294 1-1046): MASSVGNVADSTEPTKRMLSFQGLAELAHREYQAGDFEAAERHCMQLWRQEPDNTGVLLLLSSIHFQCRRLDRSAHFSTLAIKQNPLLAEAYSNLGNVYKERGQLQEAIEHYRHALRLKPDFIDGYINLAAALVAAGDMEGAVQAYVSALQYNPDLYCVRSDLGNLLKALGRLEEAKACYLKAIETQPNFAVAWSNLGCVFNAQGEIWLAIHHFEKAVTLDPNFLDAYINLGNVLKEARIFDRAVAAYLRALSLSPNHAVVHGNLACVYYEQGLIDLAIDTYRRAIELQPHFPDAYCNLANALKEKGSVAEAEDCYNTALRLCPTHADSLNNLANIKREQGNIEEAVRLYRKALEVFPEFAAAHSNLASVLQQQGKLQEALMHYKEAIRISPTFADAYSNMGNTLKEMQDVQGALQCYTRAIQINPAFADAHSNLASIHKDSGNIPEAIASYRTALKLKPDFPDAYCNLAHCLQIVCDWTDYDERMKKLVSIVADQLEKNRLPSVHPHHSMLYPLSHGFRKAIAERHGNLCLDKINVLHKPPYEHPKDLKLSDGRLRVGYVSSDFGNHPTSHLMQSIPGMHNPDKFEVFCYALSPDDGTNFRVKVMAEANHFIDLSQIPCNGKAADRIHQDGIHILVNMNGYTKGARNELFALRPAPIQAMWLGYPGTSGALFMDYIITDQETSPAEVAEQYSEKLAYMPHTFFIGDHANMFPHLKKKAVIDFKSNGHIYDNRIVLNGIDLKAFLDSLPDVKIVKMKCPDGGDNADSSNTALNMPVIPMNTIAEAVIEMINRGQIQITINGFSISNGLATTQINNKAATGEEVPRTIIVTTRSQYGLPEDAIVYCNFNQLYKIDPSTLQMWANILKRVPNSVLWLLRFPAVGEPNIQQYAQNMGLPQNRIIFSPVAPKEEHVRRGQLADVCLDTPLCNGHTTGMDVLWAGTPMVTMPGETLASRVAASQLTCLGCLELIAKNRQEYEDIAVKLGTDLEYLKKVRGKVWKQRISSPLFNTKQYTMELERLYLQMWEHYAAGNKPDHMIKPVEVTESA
Sequence | log2 fold enrichment
TSATSYLPYYTIYPG | 3.18
HYGQMIHHFPQGFHD | 2.93
VLIFPPQYQMFISSY | 3.4
FLPQYKIEVPFSVYK | 2.65
TMKHRPATAWGIHHH | 4.13
SSYMPQYQISFLKKE | 6.02
VTPMHDHFHHINMSV | 2.88
HVTHMHLHRQSDGI | 2.97

Set 3
Target: tungstate, free oxyanion
Method: microfluidic competitive inhibition
Matrix: in vitro, cell-free expressed
Concentration: not given
Notes: derived from inhibition constants, unchanged parent 2230 nM
Reading: lower = stronger binding
Parent: PafA, mature enzyme, eGFP fusion (Elizabethkingia meningoseptica, UniProt Q9KJX5); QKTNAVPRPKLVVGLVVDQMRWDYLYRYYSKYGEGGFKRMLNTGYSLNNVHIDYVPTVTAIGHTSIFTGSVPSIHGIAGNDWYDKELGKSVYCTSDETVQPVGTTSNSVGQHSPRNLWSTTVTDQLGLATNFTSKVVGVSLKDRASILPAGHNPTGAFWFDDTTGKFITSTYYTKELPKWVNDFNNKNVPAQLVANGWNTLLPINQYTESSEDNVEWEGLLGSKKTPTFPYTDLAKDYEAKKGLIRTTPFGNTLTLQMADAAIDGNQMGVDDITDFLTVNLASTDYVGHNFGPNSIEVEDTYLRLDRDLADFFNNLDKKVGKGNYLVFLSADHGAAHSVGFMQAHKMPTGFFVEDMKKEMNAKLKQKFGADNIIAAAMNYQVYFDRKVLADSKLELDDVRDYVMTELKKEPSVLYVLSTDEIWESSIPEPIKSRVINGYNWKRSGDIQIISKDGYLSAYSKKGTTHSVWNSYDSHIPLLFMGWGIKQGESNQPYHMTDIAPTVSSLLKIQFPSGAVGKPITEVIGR
Substitution | oxyanion analog dissociation constant [µM]
L254V | 2.37
S418V | 2.2
L414V | 1.69
R8G | 1.7
V287A | 2.17
D271G | 2.15
A240V | 2.33
E424V | 2.45

Other studies, line by line
SMILES | system | setting | measurement | value
CN(N=O)C(=O)N[C@@H]1[C@@H](O)[C@H](O)[C@@H](CO)O[C@@H]1O | mice, STZ diabetic neuropathy | dose not given, 7 days after STZ | body weight | 31 g and 34.8 g and 35 g and 36.5 g

Excerpt of the above (set 3):
Substitution | oxyanion analog dissociation constant [µM]
L254V | 2.37
S418V | 2.2
L414V | 1.69
